{"data": "Published values from different studies", "cell line": "HeLa", "note": "Lines come from different studies, so protocols differ. Numbers after ± are the reported error."}
{"SMILES": "CC[C@H](C)[C@@H]([C@@H](CC(=O)N1CCC[C@H]1[C@H](OC)[C@@H](C)C(=O)N[C@@H](Cc1ccccc1)C(=O)O)OC)N(C)C(=O)[C@@H](NC(=O)[C@H](C(C)C)N(C)C(=O)CCSSC[C@H](NC(=O)[C@@H](NC(=O)CNC(=O)[C@H](CCC(=O)O)NC(=O)[C@H](CC(=O)O)NC(=O)[C@H](C)NC(=O)[C@H](CC(=O)O)NC(=O)[C@@H](NC(=O)[C@H](CC(C)C)NC(=O)[C@H](CC(C)C)NC(=O)[C@H](C)NC(=O)[C@H](CC(C)C)NC(=O)[C@H](CC(=O)O)NC(=O)[C@H](CC(C)C)NC(=O)[C@H](CC(C)C)NC(=O)[C@H](CC(C)C)NC(=O)[C@H](CC(C)C)NC(=O)[C@@H]1CCCN1C(=O)[C@@H](NC(=O)[C@@H](NC(=O)[C@H](Cc1ccccc1)NC(=O)[C@H](CC(C)C)NC(=O)[C@H](Cc1c[nH]c2ccccc12)NC(=O)[C@H](CC(=O)O)NC(=O)[C@H](C)NC(=O)[C@H](Cc1ccc(O)cc1)NC(=O)[C@H](CCCNC(=N)N)NC(=O)[C@H](C)NC(=O)[C@H](Cc1c[nH]c2ccccc12)NC(=O)[C@H](Cc1ccc(O)cc1)NC(=O)[C@@H](NC(=O)[C@@H]1CCCN1C(=O)[C@H](CC(N)=O)NC(=O)[C@H](CCC(N)=O)NC(=O)[C@H](CCC(=O)O)NC(=O)CNC(=O)CN)[C@@H](C)CC)[C@@H](C)O)[C@@H](C)O)C(C)C)[C@@H](C)O)C(=O)NCC(N)=O)C(C)C", "test": "MTT", "setting": "pH 6.0", "scale": "baseline: without Ca2+ over 1.2 mM Ca2+", "endpoint": "IC50 fold decrease", "result": "5 fold"}
{"SMILES": "CCCCN(CCCC)CC(O)COc1c2ccoc2c(OC)c2oc(CC)cc(=O)c12 (stereo not shown)", "test": "MTT", "scale": "baseline: IC50 HaCaT over IC50 HeLa", "endpoint": "selectivity index", "result": 1.94}
{"SMILES": "CC[C@H](C)[C@@H]([C@@H](CC(=O)N1CCC[C@H]1[C@H](OC)[C@@H](C)C(=O)NC(Cc1ccccc1)C(C)OC)OC)N(C)C(=O)[C@@H](NC(=O)[C@H]([C@@H](C)CC)N(C)C)C(C)C (stereo partly shown)", "test": "cytotoxicity", "scale": "baseline: compound over MMAF, higher = more active than MMAF", "endpoint": "potency ratio", "result": "10 fold"}
{"SMILES": "O=C(O)CC[C@H](NC(=O)CNC(=O)[C@@H](Cc1ccccc1)NC(=O)[C@@H](Cc1ccccc1)NC(=O)Cc1ccc2ccccc2c1)C(=O)N[C@@H](Cc1ccc(OP(=O)(O)O)cc1)C(=O)O", "setting": "500 µM, 48 h", "endpoint": "viability", "result": "> 100%"}
{"SMILES": "CC(=O)N[C@@H](CCCNC(=N)N)C(=O)N[C@@H](CCCNC(=N)N)C(=O)N[C@@H](CCCNC(=N)N)C(=O)N[C@@H](CCCNC(=N)N)C(=O)N[C@@H](CCCNC(=N)N)C(=O)N[C@@H](CCCNC(=N)N)C(=O)N[C@@H](CCCNC(=N)N)C(=O)N[C@@H](CCCNC(=N)N)C(=O)N[C@@H](CCCNC(=N)N)C(=O)N[C@@H](CCCNC(=N)N)C(=O)NCC(=O)N[C@@H](COP(=O)(O)O)C(=O)N1CCC[C@H]1C(=O)N[C@H](C(=O)N[C@@H](Cc1ccccc1)C(=O)O)[C@@H](C)O", "test": "DNA damage, immunostaining", "setting": "10 µM, 30 min, added: ionizing radiation 10 Gy", "endpoint": "γH2AX-positive cells", "result": "47.1 ± 9.85%"}
{"SMILES": "CC(C)C[C@@H](NC(=O)CCNc1ccc([N+](=O)[O-])c2nonc12)C(=O)N[C@H](CC(C)C)C(=O)N[C@H](CC(C)C)C(=O)N[C@H](CC(C)C)C(=O)N[C@H](Cc1ccc(OP(=O)(O)O)cc1)C(=O)O", "test": "MTT", "setting": "200 µM, 24 h", "endpoint": "viability", "result": "> 60%"}
{"SMILES": "Nc1ncnc2c1ncn2CC(=O)N[C@@H](Cc1ccccc1)C(=O)N[C@@H](Cc1ccccc1)C(=O)N[C@@H](Cc1ccc(OP(=O)(O)O)cc1)C(=O)O", "test": "MTT", "setting": "500 µM, 72 h", "endpoint": "viability", "result": "100%"}
{"SMILES": "CC=C(C)C(=O)OC1C(O)C2OC(COC(=O)CCCCCCCCCC(CCCCC)OC3OC(C)C(OC(C)=O)C(O)C3O2)C1OC(=O)C=Cc1ccccc1 (stereo not shown)", "scale": "baseline: IC50 MCF-10A over IC50 HeLa", "endpoint": "selectivity index", "result": 2.06}
{"SMILES": "Cc1ccc2ccc3ccc(C)nc3c2n1.O.[99Tc+].[C-]#[O+].[C-]#[O+].[C-]#[O+]", "test": "flow cytometry", "setting": "10 µM, 24 h", "endpoint": "G2/M phase cells", "result": "51.6%"}
{"SMILES": "C[C@H](NC(=O)[C@H](CCCNC(=N)N)NC(=O)[C@H](CCC(=O)O)NC(=O)[C@H](CCCNC(=N)N)NC(=O)[C@H](CCCNC(=N)N)NC(=O)[C@@H](NC(=O)[C@H](CCCNC(=N)N)NC(=O)[C@H](C)NC(=O)[C@H](CCCNC(=N)N)NC(=O)[C@H](CCC(=O)O)NC(=O)[C@@H](N)CCCNC(=N)N)[C@@H](C)O)C(=O)N[C@@H](CCCNC(=N)N)C(=O)N[C@H](C(=O)N[C@@H](CCCNC(=N)N)C(=O)N[C@@H](CCC(=O)O)C(=O)N[C@@H](CCCNC(=N)N)C(=O)N[C@@H](C)C(=O)N[C@@H](CCCNC(=N)N)C(=O)N[C@H](C(=O)N[C@@H](CCCNC(=N)N)C(=O)O)[C@@H](C)O)[C@@H](C)O", "test": "refers to: VEGF165", "setting": "concentration not given", "endpoint": "expression level", "result": "decreased"}
{"SMILES": "CC(C)C12OC1C1OC13C1(C)CCC4=C(COC4=O)C1CC1OC13C2OC(=O)CCCOC1OC(CO)C(O)C(O)C1O (stereo not shown)", "test": "Hoechst staining", "setting": "1 µM, 6% DMSO", "endpoint": "cells with nuclear fragmentation", "result": "23%"}
{"SMILES": "CC1=CC=c2ccc3c4c2[N]1[Re](=[C]=O)(=[C]=O)(=[C]=O)([C]#[N+]c1c(C)cccc1C)[N]4C(C)=CC=3.O=S(=O)([O-])C(F)(F)F", "test": "MitoTracker microscopy", "setting": "10 µM, 14 min", "scale": "baseline: untreated", "endpoint": "mitochondria number", "result": "2 fold"}
{"SMILES": "CCCCCCCCCCCC[C@@H](O)[C@H]1CC[C@H]([C@H](O)CCCCCCCCCCCCCCC2=C[C@H](C)OC2=O)O1", "test": "MTT", "setting": "concentration not given, 72 h", "endpoint": "cytotoxicity", "result": "inactive"}
{"note": "Some of these lines once more:"}
{"SMILES": "C[C@H](NC(=O)[C@H](CCCNC(=N)N)NC(=O)[C@H](CCC(=O)O)NC(=O)[C@H](CCCNC(=N)N)NC(=O)[C@H](CCCNC(=N)N)NC(=O)[C@@H](NC(=O)[C@H](CCCNC(=N)N)NC(=O)[C@H](C)NC(=O)[C@H](CCCNC(=N)N)NC(=O)[C@H](CCC(=O)O)NC(=O)[C@@H](N)CCCNC(=N)N)[C@@H](C)O)C(=O)N[C@@H](CCCNC(=N)N)C(=O)N[C@H](C(=O)N[C@@H](CCCNC(=N)N)C(=O)N[C@@H](CCC(=O)O)C(=O)N[C@@H](CCCNC(=N)N)C(=O)N[C@@H](C)C(=O)N[C@@H](CCCNC(=N)N)C(=O)N[C@H](C(=O)N[C@@H](CCCNC(=N)N)C(=O)O)[C@@H](C)O)[C@@H](C)O", "test": "refers to: VEGF165", "setting": "concentration not given", "endpoint": "expression level", "result": "decreased"}
{"SMILES": "CC(C)C12OC1C1OC13C1(C)CCC4=C(COC4=O)C1CC1OC13C2OC(=O)CCCOC1OC(CO)C(O)C(O)C1O (stereo not shown)", "test": "Hoechst staining", "setting": "1 µM, 6% DMSO", "endpoint": "cells with nuclear fragmentation", "result": "23%"}
